Published values of several laboratories.
Each line is one published result; not all experiments were run side by side. Numbers after ± are the reported error. Converted amounts (≈) assume the structure as drawn.
CYP2C19: Cytochrome P450 2C19 (CYP2C19, Homo sapiens, UniProt P33261)
UniProt P33261, sequence (whole entry, looked up): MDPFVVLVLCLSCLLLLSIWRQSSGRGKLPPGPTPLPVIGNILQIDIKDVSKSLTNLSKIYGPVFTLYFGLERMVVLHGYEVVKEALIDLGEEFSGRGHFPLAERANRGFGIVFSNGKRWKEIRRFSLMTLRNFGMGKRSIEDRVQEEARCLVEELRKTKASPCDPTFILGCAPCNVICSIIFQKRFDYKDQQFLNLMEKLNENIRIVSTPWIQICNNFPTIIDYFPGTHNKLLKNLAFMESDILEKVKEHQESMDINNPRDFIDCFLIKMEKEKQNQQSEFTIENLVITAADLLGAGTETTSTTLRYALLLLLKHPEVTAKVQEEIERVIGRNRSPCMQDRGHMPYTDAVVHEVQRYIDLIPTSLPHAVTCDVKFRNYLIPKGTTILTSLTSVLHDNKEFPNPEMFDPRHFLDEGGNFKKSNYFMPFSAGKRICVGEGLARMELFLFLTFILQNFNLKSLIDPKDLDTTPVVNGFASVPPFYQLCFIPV
UniProt Q06520, sequence (whole entry, looked up): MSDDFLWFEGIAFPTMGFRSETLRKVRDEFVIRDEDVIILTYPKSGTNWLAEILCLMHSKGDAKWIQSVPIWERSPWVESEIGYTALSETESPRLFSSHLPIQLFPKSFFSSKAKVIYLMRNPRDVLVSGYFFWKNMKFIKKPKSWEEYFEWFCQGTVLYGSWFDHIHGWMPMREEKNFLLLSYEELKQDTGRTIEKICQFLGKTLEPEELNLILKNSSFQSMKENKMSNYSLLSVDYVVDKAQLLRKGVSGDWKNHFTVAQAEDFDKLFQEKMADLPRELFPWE
UniProt P16662, sequence (whole entry, looked up): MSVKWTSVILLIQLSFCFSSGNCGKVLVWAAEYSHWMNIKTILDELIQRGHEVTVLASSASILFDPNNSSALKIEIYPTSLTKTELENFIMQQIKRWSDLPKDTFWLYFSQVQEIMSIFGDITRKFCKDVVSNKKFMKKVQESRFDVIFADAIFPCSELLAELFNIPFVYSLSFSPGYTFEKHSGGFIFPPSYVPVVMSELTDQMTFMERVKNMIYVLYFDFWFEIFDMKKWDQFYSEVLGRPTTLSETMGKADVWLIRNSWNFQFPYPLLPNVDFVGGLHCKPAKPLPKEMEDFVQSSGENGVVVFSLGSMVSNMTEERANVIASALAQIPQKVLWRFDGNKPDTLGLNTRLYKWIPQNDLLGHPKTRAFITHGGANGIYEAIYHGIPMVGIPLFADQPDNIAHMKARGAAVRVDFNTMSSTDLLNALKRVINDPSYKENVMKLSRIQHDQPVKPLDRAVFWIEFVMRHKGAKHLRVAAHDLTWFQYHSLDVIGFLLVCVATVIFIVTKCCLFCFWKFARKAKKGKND

Under “apparent volume of distribution (Vz/F)”, `C[C@@](O)(C(F)F)[C@H](NC(=O)c1ccc(C#CC#CC2CC2)cc1)C(=O)NO` is recorded as 8.5 ± 5.9 L/kg (beagle dogs; oral, 50 mg/kg).
`CN(C)CC1CCCCC1(O)c1cccc(O)c1` (stereo not shown) — result for “Papp A to B”: 6.8 ± 0.3 ×10⁻⁶ cm/s (P-glycoprotein; Caco-2 TC7; 10 µM, 3 h, pH 6.8 apical, 7.4 basolateral, with: cyclosporin A 10 µM).
`CC(C)[C@H](NC(=O)CNC(=O)[C@H](CCC(N)=O)NC(=O)[C@H](C)N)C(=O)O` — result for “drug-related adverse events”: 0% (human; intravenous infusion, 45 mg/kg/h, 2 h, relatedness Definitely; relative to: subjects).
`C=C(C)[C@@H]1CCC(C(=O)O)=C[C@H]1c1c(O)cc(CCCCC)cc1O` gave a half-life of 27.1 h (CYP2C19; concentration not given, single dose, with: fluconazole 200 mg once daily).
The tracer uptake of `CN[C@](C)(C[18F])C(=O)O` is reported as 2.5 %ID/g (SK-OV-3 tumour model; host not given, bone; 30 min, tumour-bearing).
With `C[C@H](O)CC(=O)OCCc1ccc(O)cc1` the CC50 was > 100 µM (human cells).
For `COc1cc(C(=O)NCCOCCOCCOCCNC(=O)c2ccc([18F])nc2)ccc1NC(=O)C1NC(CC(C)(C)C)C(C#N)(c2ccc(Cl)cc2F)C1c1cccc(Cl)c1F` (stereo not shown), the tracer uptake was 10.2 %ID/g (HepG2 tumour model; host not given, liver; 30 min, tumour-bearing).
`CSCC[C@@H]1NC(=O)[C@@H]2CSSC[C@H](NC(=O)[C@H](CO)NC(=O)[C@H](C)N)C(=O)N[C@@H](CCCNC(=N)N)C(=O)N[C@@H]([C@@H](C)O)C(=O)N3CCC[C@H]3C(=O)N[C@@H](CCCCN)C(=O)N[C@@H](CC(=O)O)C(=O)N[C@H]3CSSC[C@H](NC(=O)[C@H](CCCCN)NC(=O)[C@H](CCCNC(=N)N)NC(=O)[C@H](CC(N)=O)NC1=O)C(=O)N[C@@H](CCCCN)C(=O)N[C@H]1CSSC[C@H](NC(=O)[C@@H]4CCCN4C(=O)[C@H](CC(=O)O)NC(=O)[C@H](C)NC3=O)C(=O)N[C@@H](C)C(=O)N[C@@H](CCCCN)C(=O)N[C@@H](CCC(=O)O)C(=O)N[C@@H]([C@@H](C)O)C(=O)NCC(=O)N[C@@H](CSSC[C@@H](C(N)=O)NC(=O)[C@H](CCCNC(=N)N)NC(=O)[C@H](CC(N)=O)NC1=O)C(=O)N1CCC[C@H]1C(=O)N[C@@H](Cc1ccc(O)cc1)C(=O)NCC(=O)N[C@@H](CCCCN)C(=O)N2` gave a Triglycerides of 66 mg/dL (DA rat pristane-induced arthritis, serum; subcutaneous, 0.1 mg/kg single dose at onset, 21 days).
For `CCCCCc1cc(O)c2c(c1)OC(C)(C)C1CCC(CO)=CC21` (stereo not shown), the inhibition was ≤ 50% (UDP-glucuronosyltransferase 2B7 (UGT2B7, Homo sapiens, UniProt P16662); enzyme activity, inhibitor; pooled human kidney microsomes; up to 100 µM, with: zidovudine).
Under “molar absorption coefficient”, `Nc1nc2c([C@@H]3O[C@@H]4COP(=O)(O)O[C@H]5[C@@H](O)[C@H](c6scc7c(=O)[nH]c(N)nc67)O[C@@H]5COP(=O)(O)O[C@H]4[C@H]3O)scc2c(=O)[nH]1` is recorded as 7470 M⁻¹ cm⁻¹ (water).
With `CCC(=O)N(C)c1ccc(Cl)c(Cl)c1` the revertant colonies was 72 ± 13.9 revertants/plate (Salmonella typhimurium; Ames test; TA100; 0.10 mg/plate, without S9).
`CC[C@H](C)C(=O)N1CCC(NC(=O)Nc2ccc(OC(F)(F)F)c(F)c2)CC1` has an AUC of 1870 ng·h/mL (human, plasma; oral, 8 mg, single dose, healthy volunteers).
Under “serum total protein”, `CN(C)C(CNC(=O)Nc1cc(C(F)(F)F)ccc1N1CCOCC1)c1ccncc1` (stereo not shown) is recorded as 4.3 g/dL (mouse, serum; intraperitoneal, 240 mg/kg single dose).
`O=C(O)CCC(NP(=O)(O)OCCC[C@@H](NC(=O)CCC(NC(=O)CCCCCNC(=O)c1ccc([18F])cc1)C(=O)O)C(=O)O)C(=O)O` (stereo partly shown) has a tracer uptake of 24.4 %ID/g (CWR22Rv1 tumour model; host not given, kidney; intravenous, 1 h, tumour-bearing).
The revertant count of `COc1ccc(CNc2nc(N3CCC[C@H]3CO)ncc2C(=O)NNC(=O)c2cnc(N3CCC[C@H]3CO)nc2NCc2ccc(OC)c(Cl)c2)cc1Cl` is reported as 38 ± 2 (Salmonella typhimurium; TA98; 250 µg/plate, 48 h, with: rat liver S9).
The tracer uptake of `O=C(O)CCC(NP(=O)(O)OCCC[C@@H](NC(=O)CCC(NC(=O)c1ccc([18F])cc1)C(=O)O)C(=O)O)C(=O)O` (stereo partly shown) is reported as 0.5 %ID/g (CWR22Rv1 tumour model; host not given, heart; intravenous, 2 h, tumour-bearing).
`N[C@]1(c2ccccc2Cl)CCC[C@H](O)C1=O` has a plasma concentration of 2830 ± 313 ng/mL (Wistar rats; intravenous, 20 mg/kg, 60 min).
`Cc1cccc(-c2nc(Nc3ccncn3)c3sccc3n2)n1` gave a kinetic solubility of 277 µM (≈ 88.7 µg/mL) (CLND; phosphate-buffered saline; 1 (unit not given), pH 7.4).
With `C[C@]12CC[C@H](O)CC1CCC1C2[C@H](O)C(=O)[C@]2(C)[C@@H](c3ccc(=O)oc3)CC[C@]12O` (stereo partly shown) the sulfation rate was 1.88 pmol/min/mg protein (Sulfotransferase 2A1 (SULT2A1, Homo sapiens, UniProt Q06520); substrate; human kidney cytosol; pH 7.4).
With `COc1ccc(CCNc2cc(-c3ccccc3)nc3ncnn23)cc1` the intrinsic clearance was 3 mL/min/g (human liver microsomes).
For `C=C(C)[C@@H]1CCC(CO)=C[C@H]1c1c(O)cc(CCCCC)cc1O`, “decrease in AUC(0-tau)” read 29% (CYP2C19; concentration not given, single dose, with: fluconazole steady state).
The tracer uptake of `O=C(O)CCC(NP(=O)(O)OCCC[C@@H](NC(=O)CCC(NC(=O)CCCCCNC(=O)CCCCCNC(=O)c1ccc([18F])cc1)C(=O)O)C(=O)O)C(=O)O` (stereo partly shown) is reported as 0.06 %ID/g (CWR22Rv1 tumour model; host not given, heart; intravenous, 2 h, tumour-bearing).
`COC1=C[C@@H]2[C@@H]3Cc4ccc(OC)c(OC(=O)[C@@H]5CCCN5)c4[C@]2(CCN3C)CC1=O` gave an IC50 of > 100 µM (RAW264.7; cytotoxicity, MTT; 24 h).
`COc1ccc(CNc2nc(N3CCC[C@H]3CO)ncc2C(=O)NN)cc1Cl` gave a revertant count of 34 ± 3 (Salmonella typhimurium; TA98; 125 µg/plate, 48 h, with: rat liver S9).
The absorption maximum of `Nc1nc2c([C@@H]3O[C@@H]4COP(=O)(O)O[C@H]5[C@@H](O)[C@H](c6snc7c(=O)[nH]c(N)nc67)O[C@@H]5COP(=O)(O)O[C@H]4[C@H]3O)snc2c(=O)[nH]1` is reported as 331 nm (water).

Repeated from above:
`Cc1cccc(-c2nc(Nc3ccncn3)c3sccc3n2)n1` gave a kinetic solubility of 277 µM (≈ 88.7 µg/mL) (CLND; phosphate-buffered saline; 1 (unit not given), pH 7.4).
With `C[C@]12CC[C@H](O)CC1CCC1C2[C@H](O)C(=O)[C@]2(C)[C@@H](c3ccc(=O)oc3)CC[C@]12O` (stereo partly shown) the sulfation rate was 1.88 pmol/min/mg protein (Sulfotransferase 2A1 (SULT2A1, Homo sapiens, UniProt Q06520); substrate; human kidney cytosol; pH 7.4).
With `COc1ccc(CCNc2cc(-c3ccccc3)nc3ncnn23)cc1` the intrinsic clearance was 3 mL/min/g (human liver microsomes).
